Published values pooled from the literature.
Protocols differ between the studies behind these lines. ± marks the error that the study gave.

Substance = COc1cccc2c1C(=O)c1c(O)c3c(c(O)c1C2=O)C[C@@](O)(C(=O)CO)C[C@@H]3O[C@H]1C[C@H](N)[C@H](O)[C@H](C)O1; system = mouse, T47D xenograft; conditions = 5 mg/kg once weekly for 2 weeks, day 10 after inoculation, started after 2 weeks growth; endpoint = tumour volume; value = 57 ± 18.7 mm3
Substance = O=C1[C@H](CC[C@H](O)c2ccc(F)cc2)[C@@H](c2ccc(O)cc2)N1c1ccc(F)cc1; system = human; conditions = dose not given, 10 days; how to read = relative to: baseline, decrease; endpoint = LDL-C change; value = 9.7%
Substance = CC1(C)CC(C)(C)c2cc(N/C(S)=N/c3ccc([N+](=O)[O-])cc3)ccc2S1; system = mouse; conditions = oral, 60 mg/kg once daily, 4 to 6 h after dosing; endpoint = plasma ccK18 level; value = > 1000 U/L
Substance = Cc1ccc(NC(=O)c2ccc(CN3CCN(C)CC3)cc2)cc1Nc1nccc(-c2cncc(-c3oncc3C)c2)n1; system = mild-to-moderate Parkinson's disease patients; conditions = oral, 100 mg once daily, pre-dose baseline, on anti-Parkinson medication; how to read = direction not given; endpoint = MDS-UPDRS part I score; value = 5.4 ± 3.5
Substance = CC(C)C[C@H](NC(=O)[C@H](CO)NC(=O)[C@H](CCCNC(=N)N)NC(=O)[C@H](CC(=O)O)NC(=O)[C@H](CCC(=O)O)NC(=O)[C@H](C)NC(=O)[C@@H]1CCCN1C(=O)[C@H](C)NC(=O)[C@H](CCC(=O)O)NC(=O)[C@@H]1CCCN1C(=O)[C@@H]1CCCN1)C(N)=O; assay = HPLC-EC; system = F344 rat, normal, striatum; conditions = intranasal, 1000 µg, 5 days/week for 3 weeks; endpoint = DOPAC level; value = 1570 ± 186 ng/g
Substance = COc1ccccc1[C@H](Cn1c(=O)n(C(C)(C)C(=O)O)c(=O)c2c(C)c(-c3ncco3)sc21)OC1CCOCC1; assay = fructose-stimulated hepatic de novo lipogenesis; system = human; conditions = oral, 20 mg; how to read = at least 70% inhibition; endpoint = duration of DNL inhibition; value = ≥ 6 h
Substance = O=C(O)CNC(=O)c1c(O)c2ccccc2n(OCC2CC2)c1=O; system = human; conditions = single ascending doses; how to read = relative to: placebo; endpoint = haematocrit, haemoglobin, reticulocytes; value = no effect
Substance = CC(C)C[C@@H]1NC(=O)[C@H](CCCNC(=N)N)NC(=O)[C@H](Cc2c[nH]c3ccccc23)NC(=O)[C@H](CCCNC(=N)N)NC(=O)CNC(=O)CNC(=O)[C@H](CCCCN)NC(=O)CNC(=O)[C@H](Cc2c[nH]c3ccccc23)NC(=O)[C@H](CC(=O)O)NC(=O)[C@@H](NC(=O)[C@H](CCC(=O)O)NC(=O)[C@H](C)NC(=O)CCCC[C@@H]2SC[C@@H]3NC(=O)N[C@@H]32)CSSC[C@@H](C(=O)NCC(=O)N2CCC[C@H]2C(=O)O)NC(=O)[C@H](C)NC(=O)[C@H](CCC(=O)O)NC(=O)[C@H]([C@@H](C)O)NC(=O)[C@H](CCCCN)NC(=O)CNC(=O)[C@H](CO)NC(=O)[C@H](C)NC(=O)CNC(=O)[C@@H]2CCCN2C(=O)[C@H](Cc2c[nH]c3ccccc23)NC1=O; assay = thioflavin S, Congo red; system = APPswe/PSEN1(A246E) mouse, young, brain cortex; conditions = s.c., once monthly, 5 to 12 months, with adjuvant; how to read = relative to: mock-immunized; endpoint = amyloid plaque burden; value = 12 ± 3%
Substance = Polymyxin B; system = human whole blood; conditions = 250 ng/mL, 4 h, 37 °C, with: E. coli LPS 0.5 ng/mL; how to read = relative to: LPS without compound; endpoint = IL-6 release; value = 19 ± 13.8%
Substance = PACAP; assay = item: ADAM17; system = APP V717I transgenic mice, brain; conditions = intranasal, dose not given, 3 months; how to read = relative to: vehicle; endpoint = mRNA level; value = 120 ± 9.1%
Substance = Cc1cccc2c1NC(=O)[C@@H](NC(=O)[C@H](CCC(F)(F)F)[C@H](CCC(F)(F)F)C(N)=O)N=C2c1cccc(F)c1; assay = RT-qPCR; system = human, peripheral blood; conditions = 1.2 mg and 1.5 mg once daily, 2 weeks; how to read = relative to: baseline; endpoint = Hes1 mRNA level decrease; value = > 50%
Substance = COc1ccc(Nc2c(-c3ccc(S(C)(=O)=O)cc3)nc3ccccn23)cc1; assay = formalin test; system = male Wistar rat; conditions = intraperitoneal, 40 mg/kg; how to read = relative to: control group; endpoint = pain score AUC; value = decreased
Substance = NCCCCCCNS(=O)(=O)c1cccc2c(Cl)cccc12; assay = inhibitor, co-immunoprecipitation; system = mouse forebrain slices; conditions = 20 µM, with: NMDA 100 µM for 5 min; endpoint = NMDA-induced PSD-95-CaM binding; value = inhibited
Substance = C[C@H]1C[C@H]2CSC(N)=N[C@@]2(c2nc(NC(=O)c3ccc(OC(F)F)cn3)cs2)CO1; assay = item: CSF sAPPα; system = healthy adults; conditions = 275 mg once daily, 14 days, day 15; how to read = relative to: placebo-adjusted baseline; endpoint = change from baseline; value = 98%
Substance = CC1(C)CCC(CN2CCN(c3ccc(C(=O)NS(=O)(=O)c4ccc(NCC5CCOCC5)c([N+](=O)[O-])c4)c(Oc4cnc5[nH]ccc5c4)c3)CC2)=C(c2ccc(Cl)cc2)C1; assay = cell kill, PI exclusion flow cytometry; system = normal CD21+ B lymphocytes, dog, lymph node; conditions = 24 h; endpoint = EC50; value = 0.092 ± 0.14 µM
Substance = CCCCCCCCCC(=O)N[C@@H](Cc1c[nH]c2ccccc12)C(=O)N[C@H](CC(N)=O)C(=O)N[C@@H](CC(=O)O)C(=O)N[C@@H]1C(=O)NCC(=O)N[C@@H](CCCN)C(=O)N[C@@H](CC(=O)O)C(=O)N[C@H](C)C(=O)N[C@@H](CC(=O)O)C(=O)NCC(=O)N[C@H](CO)C(=O)N[C@@H]([C@H](C)CC(=O)O)C(=O)N[C@@H](CC(=O)c2ccccc2N)C(=O)O[C@@H]1C; system = Japanese patients with SSTI; conditions = intravenous, 4 mg/kg once daily, 7 to 14 days, test-of-cure, MITT-MRSA; endpoint = microbiological success; value = 56.4%
Substance = Oc1cccc2ccccc12; assay = fish short-term reproduction; system = Oryzias latipes, male, liver; conditions = 258 µg/L, 21 d; endpoint = vitellogenin level; value = 81 ± 75 ng/mg liver
Substance = Ac-DMQD-aldehyde (N-acetyl, C-aldehyde); assay = active-site labeling, inhibitor, YV(bio)KD-aomk probe labeling, item: caspase-3 p20; system = Jurkat cell extract; conditions = with: caspase-8; endpoint = Kd; value = 1 to 2 µM
Substance = insulin glulisine; system = obese type 2 diabetes patients; conditions = subcutaneous, 0.2 U/kg, before standard meal; endpoint = plasma glucose AUC(0-6 h); value = 738 mg·h/dL
Substance = Cc1c(C(=O)NN2CCCCC2)nn(-c2ccc(Cl)cc2Cl)c1-c1ccc(Cl)cc1; system = rat, diet-induced obese, plasma; conditions = peripheral, 10 mg/kg per day, 6 days; endpoint = glucose level; value = 5.32 ± 0.59 mmol/L
Substance = O=C(c1cc(Cc2n[nH]c(=O)c3ccccc23)ccc1F)N1CCN(C(=O)C2CC2)CC1; assay = flow cytometry; system = PBMCs, platinum-sensitive ovarian cancer patients; conditions = dose not given, 28 days, with: pegylated liposomal doxorubicin; endpoint = γH2AX phosphorylation; value = stable
Substance = Cc1cccc2nc(-c3ccc(S(C)(=O)=O)cc3)c(Nc3ccc(F)cc3)n12; assay = formalin test; system = male Wistar rat; conditions = intraperitoneal, 40 mg/kg; how to read = relative to: control group; endpoint = pain score AUC; value = decreased
Substance = CCCC[C@H](NC(C)=O)C(=O)N[C@H]1CC(=O)NCCCC[C@@H](C(=O)O)NC(=O)[C@H](Cc2c[nH]c3ccccc23)NC(=O)[C@H](CCCNC(=N)N)NC(=O)[C@@H](Cc2ccccc2)NC(=O)[C@H](Cc2c[nH]cn2)NC1=O; system = obese women; conditions = sc, 2.5 mg three times daily, 16 days; how to read = relative to: placebo; endpoint = body weight loss; value = 2.1 kg
Substance = C[C@H]1[C@H](OC(=O)CCC(=O)O)O[C@@H]2O[C@@]3(C)CC[C@H]4[C@H](C)CC[C@@H]1[C@@]24OO3; assay = bioluminescence; system = mouse, Hep3B-Luc orthotopic xenograft; conditions = 50 mg/kg daily, 24 days; how to read = relative to: vehicle; endpoint = tumour growth inhibition; value = 21.5%
Substance = insulin degludec; assay = euglycaemic clamp; system = healthy human subjects; conditions = subcutaneous, abdomen, 0.4 U/kg, 0 to 24 h; endpoint = AUC(GIR) mean estimate; value = 2830 mg/kg
Substance = COc1ccc([C@H](CC(=O)O)N2CCN(CCCc3ccc4c(n3)NCCC4)C2=O)cn1; assay = bioluminescence imaging; system = B16F10-luc, mouse, melanoma lung metastasis model; conditions = 300 mg/kg twice daily; how to read = relative to: vehicle; endpoint = lung metastasis reduction; value = 30 to 40%
Substance = CS/C(S)=N/CCCC[S+](C)[O-] (racemic); assay = RT-PCR, item: Chst1; system = rat, colon; conditions = oral gavage, 200 mg/kg, 96 h, dosed for four days; how to read = relative to: vehicle; endpoint = mRNA fold change; value = 2.96
Substance = Fc1ccc2[nH]c(-c3ccc(OCc4ccccc4)cc3)nc2c1; assay = ABTS scavenging, absorbance; endpoint = IC50; value = 1.64 µM
Substance = NCC(=O)Nc1cncc(-c2nn3c(=O)cc(N4CCNCC4)nc3s2)c1; assay = light transmission aggregometry; system = stable CAD patients on aspirin, blood ex vivo; conditions = subcutaneous, 0.075 mg/kg, 15 min post-dose, with: ADP 20 µM; endpoint = inhibition of platelet aggregation; value = 90.1%
Substance = cilengitide; system = Sprague-Dawley rats, TNBS colitis, colonic smooth muscle cells; conditions = ip, 18 mg/kg/day, 42 d, unit not given; how to read = relative to: ethanol-treated rats; endpoint = collagen IαI mRNA level; value = 0.35 ± 0.04
Substance = COc1ccc2c(c1)c(CC(=O)O)c(C)n2C(=O)c1ccc(Cl)cc1; assay = paw oedema; system = rat; conditions = intraperitoneal, 5 mg/kg; endpoint = inhibition in vivo; value = 52.8%
Substance = CC[C@@H](C(=O)Nc1ccc(C(N)=O)c(F)c1)n1cc(OC)c(-c2cc(Cl)ccc2-n2cc(C(F)(F)F)nn2)cc1=O; system = New Zealand White rabbit, FeCl2 jugular injury; conditions = intravenous, 2 mg/kg; endpoint = thrombus weight; value = 1.6 mg
Substance = NC(=O)N1c2ccccc2C[C@H](O)c2ccccc21; system = mouse; conditions = po, 50 mg/kg of eslicarbazepine acetate, 97% protection against MES; endpoint = effective brain concentration; value = 22 µmol/L
Substance = Cn1cncc1-c1c(F)cncc1NC(=O)c1c(N)nn2cc(F)cnc12; assay = flow cytometry, item: γ-H2AX; system = patients, PBMC; conditions = oral, 130 mg once daily or higher, 3 h after first dose, with: 4-NQO ex vivo; endpoint = inhibition; value = > 80%
Substance = insulin lispro; assay = euglycemic clamp; system = obese type 2 diabetes patients; conditions = subcutaneous, 50 units; endpoint = total glucose infused; value = 678 mg/kg
Substance = C[C@H]1C[C@@H]2[C@H]([C@@H](O)C[C@@]3(C)[C@H]2CC[C@]3(O)C(=O)CO)[C@@]2(C)C=CC(=O)C=C12; system = human, plasma free; conditions = oral, 32 mg daily, day 1, mean, CSG = 5 × MPD + cortisol; endpoint = steroidogenic AUEC(0-24); value = 572 ng·h/mL
Substance = CCOc1ccc(NCC(O)Cn2c3ccc(Br)cc3c3cc(Br)ccc32)cc1 (stereo not drawn); assay = neurogenesis; system = C57BL/6J mouse, hippocampal dentate gyrus; conditions = intracerebroventricular, 10 µM at 12 µL/day, 7 days; endpoint = BrdU-positive cells; value = 2.43e+07 ± 2.8e+06 cells/mm³
Substance = Cn1c(-c2ccc(Br)s2)nc2cc(-c3nnc(-c4cc(-c5cc(F)cc(F)c5)nc5ccccc45)o3)ccc21; system = human platelet-poor plasma; conditions = concentration not given; endpoint = plasma recalcification time; value = 460 s
Substance = O=C1c2cccc(O)c2C(=O)c2c(O)cc(CO)cc21; assay = cell proliferation, CellTiter-Glo; system = cord blood CD34+ cells, human; conditions = 24 h, lowest dose with significant inhibition; how to read = relative to: vehicle; endpoint = lowest effective concentration; value = 250 to 500 µM

For quick reference, copied from above:
Substance = NCCCCCCNS(=O)(=O)c1cccc2c(Cl)cccc12; assay = inhibitor, co-immunoprecipitation; system = mouse forebrain slices; conditions = 20 µM, with: NMDA 100 µM for 5 min; endpoint = NMDA-induced PSD-95-CaM binding; value = inhibited
Substance = Cc1cccc2c1NC(=O)[C@@H](NC(=O)[C@H](CCC(F)(F)F)[C@H](CCC(F)(F)F)C(N)=O)N=C2c1cccc(F)c1; assay = RT-qPCR; system = human, peripheral blood; conditions = 1.2 mg and 1.5 mg once daily, 2 weeks; how to read = relative to: baseline; endpoint = Hes1 mRNA level decrease; value = > 50%
Substance = insulin degludec; assay = euglycaemic clamp; system = healthy human subjects; conditions = subcutaneous, abdomen, 0.4 U/kg, 0 to 24 h; endpoint = AUC(GIR) mean estimate; value = 2830 mg/kg
Substance = CCCCCCCCCC(=O)N[C@@H](Cc1c[nH]c2ccccc12)C(=O)N[C@H](CC(N)=O)C(=O)N[C@@H](CC(=O)O)C(=O)N[C@@H]1C(=O)NCC(=O)N[C@@H](CCCN)C(=O)N[C@@H](CC(=O)O)C(=O)N[C@H](C)C(=O)N[C@@H](CC(=O)O)C(=O)NCC(=O)N[C@H](CO)C(=O)N[C@@H]([C@H](C)CC(=O)O)C(=O)N[C@@H](CC(=O)c2ccccc2N)C(=O)O[C@@H]1C; system = Japanese patients with SSTI; conditions = intravenous, 4 mg/kg once daily, 7 to 14 days, test-of-cure, MITT-MRSA; endpoint = microbiological success; value = 56.4%
